Results collected from several papers.
Parts stem from different laboratories: compare values within a part only. Positions count from the first letter of the parent shown.

Block 1
Target: Sal-like protein 4, full length isoform B (SALL4, Homo sapiens, UniProt Q9UJQ4-2, residues 1-616)
Technique: universal PBM
Form: double-stranded DNA, one strand shown
Sample: in vitro
Concentration: not given
Setting: 8-mer, flanks averaged, mean of replicates
Direction: higher = stronger binding
Construct (chain): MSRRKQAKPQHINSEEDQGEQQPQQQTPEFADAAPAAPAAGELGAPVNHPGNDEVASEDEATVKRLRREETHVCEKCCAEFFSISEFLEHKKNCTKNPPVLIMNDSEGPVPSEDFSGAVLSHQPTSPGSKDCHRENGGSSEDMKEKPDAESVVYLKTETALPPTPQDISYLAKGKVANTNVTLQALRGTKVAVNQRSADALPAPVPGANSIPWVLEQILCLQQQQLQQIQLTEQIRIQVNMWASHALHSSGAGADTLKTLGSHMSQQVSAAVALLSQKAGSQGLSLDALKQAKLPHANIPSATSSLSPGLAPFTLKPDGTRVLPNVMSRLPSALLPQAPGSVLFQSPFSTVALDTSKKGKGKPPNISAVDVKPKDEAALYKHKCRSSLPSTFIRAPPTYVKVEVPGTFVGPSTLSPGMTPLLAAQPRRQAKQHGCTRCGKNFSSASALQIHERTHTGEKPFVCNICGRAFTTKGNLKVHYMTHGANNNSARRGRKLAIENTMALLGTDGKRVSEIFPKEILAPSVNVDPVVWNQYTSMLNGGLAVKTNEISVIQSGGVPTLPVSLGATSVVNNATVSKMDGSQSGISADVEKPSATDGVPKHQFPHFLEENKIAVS
Oligonucleotide	E-score
ATGCCCAT	-0.0785
CGCACCAG	-0.241
CTCCGTGC	-0.316
GGGAAACA	0.0222
ACGGCGAA	0.0241
CTGAAGAC	-0.113
CGTATAAG	0.127
GAACTCTA	-0.0715
GATACTTA	0.0839
GCGTATAC	0.121
GACGTCTA	-0.00183
GGCTATCA	-0.0191
GAAAGGGA	-0.11
CGTCAACC	-0.0991
CGATAGCA	-0.106
ACCTCAAC	0.00133
ATCCATCA	0.0595

Block 2
Target: CEP164, C-terminal peptide (human)
Technique: DHFR complementation, deep sequencing
Sample: yeast
Setting: single substitutions, model-inferred values
Relative to: wild type
Direction: higher = weaker binding
Starting sequence: PDZK1, PDZ domain 2 (human); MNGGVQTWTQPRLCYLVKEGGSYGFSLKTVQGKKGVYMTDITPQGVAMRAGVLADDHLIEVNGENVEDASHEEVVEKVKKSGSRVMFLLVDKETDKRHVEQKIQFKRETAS; partner HNRVKVYRF
Substitution	binding free energy change
E67A	0.19 kcal/mol
K34T	0.209 kcal/mol
R84K	0.00489 kcal/mol
K80M	0.0331 kcal/mol
K79M	0.0214 kcal/mol
R49K	-0.0315 kcal/mol
K33M	0.0443 kcal/mol
L53R	-0.124 kcal/mol
V30N	0.468 kcal/mol
E60W	0.503 kcal/mol
K102E	-0.0692 kcal/mol
M38H	1.35 kcal/mol
A69E	-0.0956 kcal/mol
V46S	0.389 kcal/mol
T94N	-0.0959 kcal/mol
F87S	1.66 kcal/mol
K28R	0.0668 kcal/mol
R97H	-0.0867 kcal/mol

Block 3
Target: Interferon regulatory factor 7, full length, phosphomimetic (IRF7, Homo sapiens, UniProt Q92985, residues 1-503, S471D/S472D/S475D/S476D/S477D/S483D/S484D/S487D)
Technique: protein-binding microarray
Form: double-stranded DNA, one strand shown
Sample: in vitro
Concentration: 2200 nM top
Setting: 60-bp whole probe
Together with: salmon DNA 0.4 mg/ml
Relative to: random background probes
Direction: higher = stronger binding
Constant ends, left off below: GCCTAGCAC … GTCTTGATTCGCTTGACGCTGCTG
Residues (chain): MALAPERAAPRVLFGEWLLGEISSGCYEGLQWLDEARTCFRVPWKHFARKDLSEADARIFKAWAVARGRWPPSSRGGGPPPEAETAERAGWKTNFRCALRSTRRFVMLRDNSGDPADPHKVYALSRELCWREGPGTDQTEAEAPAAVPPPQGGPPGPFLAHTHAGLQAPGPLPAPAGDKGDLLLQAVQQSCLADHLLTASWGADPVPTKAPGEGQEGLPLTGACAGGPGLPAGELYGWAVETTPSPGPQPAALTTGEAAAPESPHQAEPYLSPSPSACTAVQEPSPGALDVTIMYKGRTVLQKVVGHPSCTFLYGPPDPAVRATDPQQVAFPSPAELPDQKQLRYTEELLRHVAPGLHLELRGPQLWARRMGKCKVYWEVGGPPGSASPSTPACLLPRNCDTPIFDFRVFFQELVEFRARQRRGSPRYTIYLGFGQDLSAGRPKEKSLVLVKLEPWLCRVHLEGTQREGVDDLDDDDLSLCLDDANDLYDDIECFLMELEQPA
Oligonucleotide	fitted relative affinity [z-score]
TCACATATTTATCTGCAACTGTGCTAG	1.07
TTAGGTATCGGGTATCGGGTAGTGCTA	0.248
GACGGAGTGGGGTATCGGGACGTGCTA	-0.697
CCCACCATCTAGTTCTGCTTGTGCTAG	0.711
TTAGGTTTCGGGTCCGGTTAGTGCTAG	6.56
GACGATATCAGACAGGAGACGTGCTAG	0.0157
GACGATCTCATTTTCGAGACGTGCTAG	3.84
TTAGGTTTCGGGTTTCTGTTAGTGCTA	8.44
TCAACTCCCCAACTCGCACTGTGCTAG	1.01
TTTTACATTTTAAGAAATGTGTGCTAG	0.878
GACGATCTCAGTTTCGAGACGTGCTAG	3.61
CTAGATATCAGTATCGATTAGTGCTAG	0.534
GACGGACTGGACACTGGGGTCGTGCTA	-0.694
TTATCAATCATTTTAGTTTTGTGCTAG	1.69
TCAACTCTAATCTCACTCACTGTGCTA	0.383
TTAGATATCGAGTATCGATTAGTGCTA	-0.0645
ATAACTTTTTTTTTTCCCTGGTGCTAG	1.63

Block 4
Target: CCNB2, cyclin fold, Cln2 fusion (human)
Technique: yeast growth competition, sequencing
Sample: yeast
Setting: weak parent motif
Relative to: not given
Direction: higher = stronger binding
Starting sequence: CDC6 docking peptide (human); TLKGRRLVFDNQL; partner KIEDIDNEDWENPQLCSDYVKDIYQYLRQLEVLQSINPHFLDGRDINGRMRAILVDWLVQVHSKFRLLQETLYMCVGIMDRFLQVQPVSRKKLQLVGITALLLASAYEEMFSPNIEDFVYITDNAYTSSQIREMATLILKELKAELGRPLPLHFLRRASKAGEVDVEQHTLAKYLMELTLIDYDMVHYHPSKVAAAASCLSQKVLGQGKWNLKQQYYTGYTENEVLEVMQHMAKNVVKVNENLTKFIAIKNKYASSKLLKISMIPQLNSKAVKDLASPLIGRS
Substitution	normalised enrichment score
TLKGRALVFDNQL [R6A]	-0.0122
NLKGRRLVFDNQL [T1N]	-0.393
GLKGRRLVFDNQL [T1G]	0.625
TLKGRRLVFGNQL [D10G]	-0.603
TLKGRRLVFLNQL [D10L]	0.103
TLKGVRLVFDNQL [R5V]	0.0262
TLKGRRLVFDQQL [N11Q]	0.0534
TLKGRRLVFDNCL [Q12C]	-0.146
TLKGRRLFFDNQL [V8F]	0.261
TLKGRRLVFDNQH [L13H]	-0.0703
TLKGRRLVNDNQL [F9N]	0.39
TLKGRQLVFDNQL [R6Q]	-0.334
TLKGRRLVWDNQL [F9W]	0.277
TLKGCRLVFDNQL [R5C]	-0.514
TLKGGRLVFDNQL [R5G]	-0.0383
TLKGRRLVFYNQL [D10Y]	0.757
TLKGRRLEFDNQL [V8E]	0.631
TEKGRRLVFDNQL [L2E]	-0.175
TPKGRRLVFDNQL [L2P]	0.193
TIKGRRLVFDNQL [L2I]	-0.23
MLKGRRLVFDNQL [T1M]	0.123
TLKGRRLVLDNQL [F9L]	0.466
TLKGRRLVFANQL [D10A]	0.104
TLKGRRLVFDNAL [Q12A]	0.284
TLKGRRLVHDNQL [F9H]	0.372

Block 5
Target: Centromere-binding protein 1, full length, His-tagged (CBF1, Saccharomyces cerevisiae, UniProt P17106, residues 1-351)
Chain of UniProt P17106 (whole entry, looked up): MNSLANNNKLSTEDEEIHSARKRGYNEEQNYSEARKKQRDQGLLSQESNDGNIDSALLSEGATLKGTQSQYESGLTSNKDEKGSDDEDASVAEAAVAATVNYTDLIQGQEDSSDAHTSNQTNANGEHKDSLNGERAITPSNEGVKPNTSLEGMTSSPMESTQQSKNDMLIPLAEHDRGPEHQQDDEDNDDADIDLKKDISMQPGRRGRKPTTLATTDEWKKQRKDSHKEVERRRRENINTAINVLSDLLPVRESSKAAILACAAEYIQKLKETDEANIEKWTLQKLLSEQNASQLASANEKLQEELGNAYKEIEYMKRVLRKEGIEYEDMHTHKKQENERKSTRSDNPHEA
Technique: competition protein-binding microarray
Form: double-stranded DNA, one strand shown
Sample: in vitro
Concentration: 2 µM
Setting: whole 60-bp probe, lowest competitor level
Together with: Pho4 competitor, 0.05 µM
Direction: higher = stronger binding
Constant ends, left off below: … GTCTTGATTCGCTTGACGCTGCTG
Oligonucleotide	fluorescence intensity [a.u.]
GTCTTGTCTCATTGTTGAGTGGGTGTCCCCACTTCA	70.8
GAATGTATGGATCGTCAGGTGGGCATTTGTTAACTT	169
TGCGCAACAACTTGATTAGTGGGTGTATGTCTAGAA	70.9
GTCCGCTTACGTCTGTGCGTGCGGATTGTCCCACAA	56.5
AGGATCTCTTAGGAATTCGTGACGGGGTATCCCATT	55.7
AAGAGAAGGACCCGACACGGGTCCCTCTCGATATTA	55.4
CGTCCTAGTGATTGCGCTGTGGGTGCCATGAGGAAG	64
TCGCATCCAGGCACACCCGTGTCCTCTTCTTTAATG	73
GTCCCACCAGATTTGCACGTTTTGTTACCCCAGATA	142
CATACCCAACCTTGGGGAGTGGGTGAAGATATTTGT	59.7
TCCTTGTCAACGCCGTGCGTGACGGTATGATTCACA	84.1
CTTCTGTAAATTTGGGCTGTGGGTGGACGCGCCCCG	76.4
CTTCTGTAAATTTGTCACAATACTTGACGCGCCCCG	108
CGAAGATTGCCGCGATCCGTGACTCGAAGCTACACC	101
TTGCATTTCGGGCCTTTCGTGCCGAACTTTGCCAGT	70.4
AAATTACTAAGTTGTCACACTACTTACCCCGTATGA	102
AAAGCGGTAATTTGACTCGTGGGTGCAGATATCTAT	113
GAAGTAAGTTTTCCGCACGTAAAACTACTACAACAA	78.3

Block 6
Target: Histone acetyltransferase KAT6A, both winged helices, GST fusion (KAT6A, Homo sapiens, UniProt Q92794, residues 1-181)
Technique: protein binding microarray
Form: double-stranded DNA, one strand shown
Sample: in vitro
Concentration: not given
Setting: 8-mer, flanks averaged, mean of 2 arrays, mostly near background
Relative to: not given
Direction: higher = stronger binding
Residues (chain): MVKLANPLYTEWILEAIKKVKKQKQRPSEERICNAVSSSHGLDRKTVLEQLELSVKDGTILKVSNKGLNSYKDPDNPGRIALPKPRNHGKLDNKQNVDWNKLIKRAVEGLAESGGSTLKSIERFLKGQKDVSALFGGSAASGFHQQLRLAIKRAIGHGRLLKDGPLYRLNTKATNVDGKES
Oligonucleotide	E-score
ATGGATTG	-0.0129
CCATGGTC	-0.0353
ATCATTTG	-0.134
CCGTGTAC	0.23
AGTAATGC	0.019
AGAGCCCC	-0.161
GACTGGCA	-0.113
TCTGCTCA	-0.172
ATGCGTCG	0.192
AAAATGCA	-0.0874
GAGGCCTA	-0.167
AACCGCTA	0.146
TCGGTTAA	0.134
ATCGTTCA	-0.0557
GGATTCCC	-0.0158
AACAGACG	0.0256

Mixed results
Molecule	target	assay	system	conditions	scale	measurement	value
PhoQ, residues 284 288 289 292 302 303 SSCLAV	PhoP, residues 12 14 15 18 19 VQALL (Escherichia coli, UniProt P23836)	Sort-seq, refers to: YFP reporter	E. coli	PhoQ-PhoP variant library, together with: 10 µM Mg2+	relative to: high Mg2+ state, higher = stronger signaling	fold induction	8.66

Repeated from above (block 3):
Oligonucleotide	fitted relative affinity [z-score]
TCACATATTTATCTGCAACTGTGCTAG	1.07
TTAGGTATCGGGTATCGGGTAGTGCTA	0.248
GACGGAGTGGGGTATCGGGACGTGCTA	-0.697
CCCACCATCTAGTTCTGCTTGTGCTAG	0.711
TTAGGTTTCGGGTCCGGTTAGTGCTAG	6.56
GACGATATCAGACAGGAGACGTGCTAG	0.0157
GACGATCTCATTTTCGAGACGTGCTAG	3.84
TTAGGTTTCGGGTTTCTGTTAGTGCTA	8.44
TCAACTCCCCAACTCGCACTGTGCTAG	1.01
TTTTACATTTTAAGAAATGTGTGCTAG	0.878
